Experimental data collected from several papers.
Compare with care: the assays were run in different laboratories. Values joined by “and” are separate records of one study, mostly repeats; a detail may differ. ± gives the spread as reported.
Sequence of UniProt P54753 (whole entry, looked up): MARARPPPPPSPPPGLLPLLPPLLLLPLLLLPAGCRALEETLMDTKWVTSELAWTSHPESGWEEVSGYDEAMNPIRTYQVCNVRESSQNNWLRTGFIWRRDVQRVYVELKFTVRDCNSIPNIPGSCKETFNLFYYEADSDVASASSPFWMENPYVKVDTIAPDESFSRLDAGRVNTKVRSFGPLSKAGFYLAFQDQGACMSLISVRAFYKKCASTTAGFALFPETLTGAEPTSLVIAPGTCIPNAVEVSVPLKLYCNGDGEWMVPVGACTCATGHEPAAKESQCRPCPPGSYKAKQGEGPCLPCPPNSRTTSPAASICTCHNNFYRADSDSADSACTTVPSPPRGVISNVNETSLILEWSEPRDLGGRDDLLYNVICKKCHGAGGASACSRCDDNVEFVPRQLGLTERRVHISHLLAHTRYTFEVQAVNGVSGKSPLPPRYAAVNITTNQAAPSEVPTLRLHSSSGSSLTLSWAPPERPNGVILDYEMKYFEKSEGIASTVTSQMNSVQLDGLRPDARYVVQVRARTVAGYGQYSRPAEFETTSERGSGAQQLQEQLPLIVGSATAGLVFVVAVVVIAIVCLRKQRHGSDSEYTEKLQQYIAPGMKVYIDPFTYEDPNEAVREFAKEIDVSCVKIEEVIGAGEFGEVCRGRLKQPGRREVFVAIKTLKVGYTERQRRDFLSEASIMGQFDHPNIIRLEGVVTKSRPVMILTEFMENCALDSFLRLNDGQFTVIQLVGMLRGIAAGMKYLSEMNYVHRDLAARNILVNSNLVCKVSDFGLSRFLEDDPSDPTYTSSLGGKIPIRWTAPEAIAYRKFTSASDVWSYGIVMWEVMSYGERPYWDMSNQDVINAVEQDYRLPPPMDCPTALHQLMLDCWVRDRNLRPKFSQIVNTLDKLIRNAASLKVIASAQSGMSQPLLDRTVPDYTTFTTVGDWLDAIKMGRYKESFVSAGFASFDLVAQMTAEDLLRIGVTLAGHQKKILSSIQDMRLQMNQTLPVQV
Sequence of UniProt P09769 (whole entry, looked up): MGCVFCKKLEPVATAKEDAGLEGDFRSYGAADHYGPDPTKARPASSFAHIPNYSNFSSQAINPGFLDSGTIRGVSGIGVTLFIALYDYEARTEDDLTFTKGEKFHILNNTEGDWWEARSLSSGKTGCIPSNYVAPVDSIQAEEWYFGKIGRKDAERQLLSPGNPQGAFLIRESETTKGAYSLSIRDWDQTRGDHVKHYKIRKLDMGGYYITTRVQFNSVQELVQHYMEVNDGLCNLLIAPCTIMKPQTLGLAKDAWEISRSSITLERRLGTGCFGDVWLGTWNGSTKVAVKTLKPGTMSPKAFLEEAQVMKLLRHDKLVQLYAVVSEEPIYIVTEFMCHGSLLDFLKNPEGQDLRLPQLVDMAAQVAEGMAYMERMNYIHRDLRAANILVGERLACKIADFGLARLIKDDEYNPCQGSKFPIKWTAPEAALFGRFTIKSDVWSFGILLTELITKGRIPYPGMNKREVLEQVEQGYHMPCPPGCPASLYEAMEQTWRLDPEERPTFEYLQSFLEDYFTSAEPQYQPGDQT
Sequence of UniProt P49137 (whole entry, looked up): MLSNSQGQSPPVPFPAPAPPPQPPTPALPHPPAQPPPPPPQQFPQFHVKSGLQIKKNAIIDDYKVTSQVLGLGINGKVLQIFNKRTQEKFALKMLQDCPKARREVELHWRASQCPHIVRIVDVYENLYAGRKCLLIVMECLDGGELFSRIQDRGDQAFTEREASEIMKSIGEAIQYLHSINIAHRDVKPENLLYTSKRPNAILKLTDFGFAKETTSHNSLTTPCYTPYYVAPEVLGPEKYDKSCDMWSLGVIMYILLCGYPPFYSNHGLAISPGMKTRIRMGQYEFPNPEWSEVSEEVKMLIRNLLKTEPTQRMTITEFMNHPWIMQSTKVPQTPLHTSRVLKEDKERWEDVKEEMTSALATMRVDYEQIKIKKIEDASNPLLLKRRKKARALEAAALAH
Sequence of UniProt P32246 (whole entry, looked up): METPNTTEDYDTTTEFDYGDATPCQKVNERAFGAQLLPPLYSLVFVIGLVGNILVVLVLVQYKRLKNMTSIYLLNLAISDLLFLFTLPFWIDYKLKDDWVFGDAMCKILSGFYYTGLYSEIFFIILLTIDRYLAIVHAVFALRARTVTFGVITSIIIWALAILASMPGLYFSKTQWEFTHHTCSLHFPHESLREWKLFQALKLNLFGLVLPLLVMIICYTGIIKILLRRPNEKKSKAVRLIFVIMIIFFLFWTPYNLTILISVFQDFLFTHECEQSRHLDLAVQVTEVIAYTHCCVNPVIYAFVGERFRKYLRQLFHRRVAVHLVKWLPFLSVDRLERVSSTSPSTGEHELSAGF

Structure (SMILES) | tested on | test | system | conditions | how to read | endpoint | value
Nc1ccccc1C(=O)OCC#CCOC(=O)c1ccccc1N | Nakaseomyces glabratus | microbial growth, broth dilution | MY1381 |  |  | MIC | > 128 µg/mL
Cc1nc2cc(OC(F)(F)F)ccn2c1C(=O)NCc1ccc2oc(-c3ccc(OC(F)(F)F)cc3)nc2c1 | Mycolicibacterium smegmatis |  |  |  |  | MIC90 | > 100 µM
CN1C(=O)C(C2C3=C(CC(C)(C)CC3=O)Oc3ccc(Cl)cc32)C(=O)N(C)C1=O (stereo not shown) | 3T3-L1 pre-adipocytes | cell viability, MTT |  | 72 h |  | IC50 | > 100 µg/mL
CN(C)[C@H]1C[C@@]23CC[C@@]4(O2)C(=CC[C@]2(C)[C@@H](c5ccc6ccncc6c5)CC[C@H]24)C=C3[C@@H](O)[C@@H]1O | EPHB3 (Homo sapiens, UniProt P54753) | ATP probe labelling, inhibitor, KiNativ profiling |  | 0.1 µM |  | inhibition | 19.2%
Cc1cc(Oc2nc(N3CC[C@@H](c4ccncc4)C3)ncc2F)[nH]n1 | Mycobacterium tuberculosis | OD | H37Rv PurF CRISPRi knockdown | 0.5 µM, together with: anhydrotetracycline low |  | normalised growth | 1% and 2%
CC(C)[C@H]1NC(=O)C[C@H]2/C=C/CCSSC[C@@H](NC1=O)C(=O)N[C@H](Cc1cccc3ccccc13)C(=O)NCC(=O)O2 | MAPKAPK2 (Homo sapiens, UniProt P49137) | enzyme activity, inhibitor |  | 10 µM |  | inhibition | 5.2%
CCN(CC)C(=O)[C@@H]1C=C2c3cccc4c3c(cn4C(=O)c3ccco3)C[C@H]2N(C)C1 |  | magnetometer detection | mouse C57BL/6J male | intraperitoneal, dose not given, maximally active doses, 5 min blocks |  | time to peak head-twitch response | 5 to 10 min
COc1ccccc1-c1n[nH]c2nc(N[C@H]3CC[C@H](NS(=O)(=O)CC(C)C)CC3)ncc12 |  | bead binding, competition bead pull-down, refers to: LINJ.26.0320 | Leishmania donovani extract | 10 µM | baseline: vehicle | relative abundance | 0.66
CC[C@H](C)[C@H](NC(=O)[C@H](CC(C)C)NC(=O)[C@H](CC(C)C)NC(=O)[C@H](CC(=O)O)NC(=O)[C@@H](NC(=O)[C@H](CCC(=O)O)NC(=O)[C@H](CCCCN)NC(=O)[C@H](Cc1ccc(O)cc1)NC(=O)[C@H](CCCCN)NC(=O)[C@H](Cc1c[nH]cn1)NC(=O)CNC(=O)CN)[C@@H](C)O)C(=O)N[C@@H](CC(C)C)C(=O)N[C@@H](Cc1ccccc1)C(=O)N[C@@H](CCCCN)C(=O)N[C@@H](CC(=O)O)C(=O)N[C@@H](CC(=O)O)C(=O)N[C@@H](Cc1ccc(O)cc1)C(=O)N[C@@H](Cc1ccccc1)C(=O)N[C@@H](C)C(=O)N[C@@H](CCCCN)C(=O)N[C@@H](CCCCN)C(=O)N[C@@H](CC(N)=O)C(=O)N[C@@H](CCC(=O)O)C(=O)N[C@@H](CCC(=O)O)C(=O)N[C@@H](CCCNC(=N)N)C(=O)N[C@@H](CCCCN)C(N)=O | HCV IRES RNA | MALDI-TOF mass spectrometry, refers to: 5'-hydroxyl products | hepatitis C virus |  |  | initial cleavage rate | 2.3 ± 0.1 %/min
CC(C)(C)C(=O)OCOP(=O)(OCOC(=O)C(C)(C)C)C1CCCN(O)C1=O (stereo not shown) | COLO 205 |  |  |  |  | log TGI | -5.44 log M
COc1ccccc1-c1ccncc1C(=O)Nc1nnc(OCc2ccc(Cl)cc2)s1 | HCT-116 BRCA2 wild-type |  |  | 0.06 µM | baseline: untreated | colony survival | 99.3%
O=C1NC(=O)c2c1c1cc(F)c[n+]3c1c1c2c2cc(O)ccc2[n]1[Ru-4]312([N]=C=S)[S+]3CC[S+]1CC[S+]2CC3 (stereo not shown) | FGR (Homo sapiens, UniProt P09769) | enzyme activity |  | 100 nM, human enzyme, together with: 10 µM ATP | baseline: untreated | remaining activity | 49%
Cc1[nH][n+]([Pt-2]([Cl])([n+]2[nH]c(C)c(CSC3CCCCC3)c2C)[n+]2[nH]c(C)c(CSC3CCCCC3)c2C)c(C)c1CSC1CCCCC1.[Cl-] | U-937 | cytotoxicity |  |  | baseline: IC50 HEK293 over IC50 U-937 | selectivity index | 2.5
COc1ccccc1-c1n[nH]c2nc(NC3CCN(C(=O)Cc4ccc(F)cc4F)CC3)ncc12 |  | bead binding, competition bead pull-down, refers to: LINJ.06.0370 | Leishmania donovani axenic amastigote extract | 10 µM | baseline: vehicle | relative abundance | 1.13
CS(C)(=O)=Nc1ccc(-c2ccc(-c3nc4cc(O[C@@H]5CO[C@H]6[C@@H]5OC[C@H]6O)[nH]c4cc3F)cc2)cc1 | CCR1 (Homo sapiens, UniProt P32246) | calcium signal, antagonist |  | 10 µM |  | inhibition | 26%
Cc1cc(C(=O)Nc2nc3cccc(C)c3n2[C@H]2CCCCN(C(=O)/C=C/CN(C)C)C2)ccn1 | Trypanosoma brucei |  | CLK1 C215S overexpressing | 150 x EC50 |  | survival | 2.92% and 0.396% and 0.209%
Cc1ccc(OCCN(C)C)cc1C(=O)N[C@H](C)c1cc(-c2ccc(CNC3CCCC3)s2)nc2ccccc12 | Vero E6 |  |  | 3.906 µM |  | viability | 102% and 103%
CC[C@H](C)[C@@H]1NC(=O)[C@H](Cc2c[nH]cn2)NC(=O)[C@H](CC(N)=O)NC(=O)[C@H](CO)NC(=O)[C@H](CCC(N)=O)NC(=O)[C@@H](NC(=O)CN)CSSC[C@@H]2NC(=O)CNC(=O)[C@H](C)NC(=O)[C@H](CC(C)C)NC(=O)[C@@H]3CSSC[C@@H](C(=O)NCC(=O)O)NC(=O)[C@H](Cc4ccccc4)NC(=O)CNC(=O)[C@H](CC(N)=O)NC(=O)[C@@H]4CCCN4C(=O)CNC(=O)[C@H](CSSC[C@H](NC(=O)[C@H](CCCNC(=N)N)NC(=O)[C@H](CC(N)=O)NC(=O)[C@H](Cc4c[nH]cn4)NC(=O)[C@H](CCCCN)NC(=O)[C@H](CC(C)C)NC1=O)C(=O)N[C@@H](CCCCN)C(=O)N[C@@H](CCC(N)=O)C(=O)N[C@@H](CC(=O)O)C(=O)N[C@@H](CO)C(=O)N[C@@H](CC(=O)O)C(=O)N3)NC(=O)[C@H](C(C)C)NC2=O | HEK293-TB | Wnt signaling |  | together with: Wnt3a transfection |  | IC50 | > 100 µM
CCc1nc2ccc(Cl)cn2c1C(=O)NC/C=C(\C)CC/C=C(\C)CCC=C(C)C | Mycolicibacterium smegmatis |  |  | 72 h |  | MIC | > 100 µM
CC(C)CC(C(=O)N1CC2(CC1C#N)C(=O)Nc1ccccc12)N(C)C(=O)c1cc2c(F)cc(F)c(F)c2[nH]1 (stereo not shown) | Human coronavirus 229E | cytopathic effect | MRC5 | 20 nM |  | inhibition | 112%
Cc1ccc(N2CCN(C)CC2)cc1C(=O)N[C@H](C)c1cc(-c2cnn(C)c2)nc2ccccc12 | African green monkey cells |  |  | 500 µM |  | viability | -0.272%
O=C1NC2(CC2)COc2ncc(F)cc2[C@H]2COCCN2c2ccn3ncc1c3n2 |  |  | Sprague-Dawley rat, female, serum | oral, 10 mg/kg/day, 4 weeks daily, end of recovery period |  | pancreatic amylase activity | 1440 ± 159 U/L

For quick reference, copied from above:
Structure (SMILES) | tested on | test | system | conditions | how to read | endpoint | value
CC[C@H](C)[C@H](NC(=O)[C@H](CC(C)C)NC(=O)[C@H](CC(C)C)NC(=O)[C@H](CC(=O)O)NC(=O)[C@@H](NC(=O)[C@H](CCC(=O)O)NC(=O)[C@H](CCCCN)NC(=O)[C@H](Cc1ccc(O)cc1)NC(=O)[C@H](CCCCN)NC(=O)[C@H](Cc1c[nH]cn1)NC(=O)CNC(=O)CN)[C@@H](C)O)C(=O)N[C@@H](CC(C)C)C(=O)N[C@@H](Cc1ccccc1)C(=O)N[C@@H](CCCCN)C(=O)N[C@@H](CC(=O)O)C(=O)N[C@@H](CC(=O)O)C(=O)N[C@@H](Cc1ccc(O)cc1)C(=O)N[C@@H](Cc1ccccc1)C(=O)N[C@@H](C)C(=O)N[C@@H](CCCCN)C(=O)N[C@@H](CCCCN)C(=O)N[C@@H](CC(N)=O)C(=O)N[C@@H](CCC(=O)O)C(=O)N[C@@H](CCC(=O)O)C(=O)N[C@@H](CCCNC(=N)N)C(=O)N[C@@H](CCCCN)C(N)=O | HCV IRES RNA | MALDI-TOF mass spectrometry, refers to: 5'-hydroxyl products | hepatitis C virus |  |  | initial cleavage rate | 2.3 ± 0.1 %/min
CC(C)(C)C(=O)OCOP(=O)(OCOC(=O)C(C)(C)C)C1CCCN(O)C1=O (stereo not shown) | COLO 205 |  |  |  |  | log TGI | -5.44 log M
COc1ccccc1-c1ccncc1C(=O)Nc1nnc(OCc2ccc(Cl)cc2)s1 | HCT-116 BRCA2 wild-type |  |  | 0.06 µM | baseline: untreated | colony survival | 99.3%
